Experimental data of several laboratories.
Compare with care: the assays were run in different laboratories. “And” joins repeats or separate records; there may be more than shown. ± gives the spread as reported.
Target: Cannabinoid receptor 1 (CNR1, Homo sapiens, UniProt P21554)
Sequence of UniProt P21554 (whole entry, looked up): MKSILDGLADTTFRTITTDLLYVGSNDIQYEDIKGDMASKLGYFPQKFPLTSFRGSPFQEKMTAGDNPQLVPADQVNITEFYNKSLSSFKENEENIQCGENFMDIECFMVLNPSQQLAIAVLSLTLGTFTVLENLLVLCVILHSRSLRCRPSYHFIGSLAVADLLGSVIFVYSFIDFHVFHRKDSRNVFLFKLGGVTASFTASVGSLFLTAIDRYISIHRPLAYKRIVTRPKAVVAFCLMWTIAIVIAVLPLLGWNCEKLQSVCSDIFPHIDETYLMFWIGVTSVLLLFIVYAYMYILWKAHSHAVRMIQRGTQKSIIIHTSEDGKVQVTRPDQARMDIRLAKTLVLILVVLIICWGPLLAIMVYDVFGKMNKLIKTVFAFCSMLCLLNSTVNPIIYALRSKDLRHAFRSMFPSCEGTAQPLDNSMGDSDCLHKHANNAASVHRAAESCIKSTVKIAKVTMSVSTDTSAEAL

| Compound | test | system | conditions | endpoint | value |
| --- | --- | --- | --- | --- | --- |
| CCCCC(C)c1ccc(-c2c(-c3ccc(Cl)cc3Cl)nn(N3CCCCC3)c2C)cc1 (centres unmarked) | ligand displacement, radioligand |  | cell membranes | Ki | 1.3 nM |
| Cc1ccc(C(=O)c2cn(CCCCCCl)c3ccccc23)c2ccccc12 | GIRK channel fluorescence, agonist | AtT20 expressing CB1 |  | EC50 | 231 ± 35.4 nM |
| COC(=O)c1ccc2c(C(CC(F)(F)F)c3cccs3)c(-c3ccccc3)[nH]c2c1 (single isomer, unassigned; (+)) | agonist |  | compound alone | EC50 | 682 ± 211 nM |
| CCc1c(C(=O)NCCc2ccc(N3CCCCC3)cc2)[nH]c2ccc(Cl)cc12 | cAMP signalling, negative allosteric modulator |  | mean over orthosteric agonists | IC50 | 940 nM |
| CCCCCCCCCCCCC/C=C/CCC(=O)N[C@H](CO)COC | cAMP, agonist |  |  | EC50 | 11800 nM |
| CN1CCCCC1Cn1cc(C(=O)C23CC4CC(CC(C4)C2)C3)c2ccccc21 (centres unmarked) | GIRK channel fluorescence, agonist | AtT20 expressing CB1 |  | EC50 | 2530 ± 805 nM |
| CC1=CCC2C(C1)c1c(O)cc(C(C)(C)C)cc1OC2(C)C (centres unmarked) | ligand displacement, radioligand |  | cell membranes | Ki | 7.3 nM |
| CC1(Cc2ccccc2)COc2ccc(C(=O)N3CCCCC3)cc21 (centres unmarked) | GTPγS binding, agonist |  | cell membranes | EC50 | > 10000 nM |
| CCCCCn1cc(C(=O)c2cccc3ccccc23)c2ccccc21 | GIRK channel fluorescence, agonist | AtT20 expressing CB1 |  | EC50 | 46.3 nM and 46 nM |
| C[C@@]1(Cc2ccccc2)COc2cc(C(=O)N3CCCCC3)ccc21 | GTPγS binding, agonist |  | cell membranes | EC50 | > 10000 nM |
| C=CCCCn1nc(C(=O)N[C@H](C(=O)OC)C(C)(C)C)c2ccccc21 | GIRK channel fluorescence, agonist | AtT20 expressing CB1 |  | EC50 | 19.7 ± 2.9 nM |
| CCCCCc1ccc(-c2c(C)c(C(=O)NN3CCCCC3)nn2-c2ccc(Cl)cc2Cl)cc1 | ligand displacement, radioligand |  | cell membranes | Ki | 1.7 nM |
| CCc1c(C(=O)NCCc2ccc(N3CCCCC3)cc2)[nH]c2ccc(N=C=S)cc12 | cAMP level, negative allosteric modulator | HEK293 CRE reporter | 4 h, together with: anandamide 500 nM and forskolin 10 µM | IC50 | 774 nM |
| CCCCCCN1C(=O)/C(=N\NC(=O)c2ccccc2)c2ccccc21 |  |  |  | Ki | 162 ± 7.6 nM |

Repeated from above:
| Compound | test | system | conditions | endpoint | value |
| --- | --- | --- | --- | --- | --- |
| C[C@@]1(Cc2ccccc2)COc2cc(C(=O)N3CCCCC3)ccc21 | GTPγS binding, agonist |  | cell membranes | EC50 | > 10000 nM |
